Results from different studies.
Protocols differ between the studies behind these lines.

SMILES | target or system | assay | system | setting | scale | endpoint | value
CCCCn1ccn2c(-c3ccc4[nH]ccc4c3)c(C)nc2c1=O |  |  | Sprague Dawley rat male, brain | oral, 10 mg/kg, 4 h |  | brain concentration | 12 ng/g
O=C[C@H](C[C@@H]1CCNC1=O)NC(=O)[C@H](CC1CCCCC1)NS(=O)(=O)c1ccc(Cl)cc1 | feline coronavirus |  | CRFK, FIPV-1146 |  | baseline: CC50 over EC50 | therapeutic index | > 385
FC(F)(F)c1c(CN2CCC(c3ccccc3)CC2)ccn2c(CC3CC3)nnc12 |  |  | human liver microsomes | 5 µM, 15 min |  | compound metabolized | 11%
CCCCCC(=O)OCn1cc(F)c(=O)[nH]c1=O | Caco-2 monolayer | apical to basolateral, Transwell |  | 120 min | baseline: compound over 5-fluorouracil | permeability ratio | 6.7 fold
CCCCn1ccn2c(-c3ccc(Oc4ccnc(C)c4)c(F)c3)c(C)nc2c1=O |  |  | rat liver microsomes | 5 µM, 15 min |  | metabolized fraction | 37%
CC(C)C[C@H](NC(=O)OCc1ccccc1)C(=O)N[C@@H](C[C@@H]1CCNC1=O)C(=O)C(=O)NC1CCCCC1 | feline coronavirus |  | CRFK, FIPV-1146 |  | baseline: CC50 over EC50 | therapeutic index | > 2140
CC[C@H](C)[C@@H]1NC(=O)[C@H](CC(C)C)NC(=O)[C@H](Cc2ccccc2)NC(=O)[C@H](Cc2ccccc2)NC(=O)[C@@H]2CCCN2C(=O)[C@@H]2CCCN2C(=O)[C@H](C(C)C)NC(=O)[C@H](CC(C)C)NC(=O)[C@H]([C@@H](C)CC)NC1=O | A-375 | LDH release |  | 125 µM, 48 h |  | cytotoxicity | 10%
Fc1ccc(/C=N/Nc2nnc(N/N=C/c3ccc(F)cc3)c3ccccc23)cc1 |  | haemolysis | human | 100 mM, 45 min |  | haemolysis | 19 to 35%
CC(C)C[C@H](NC(=O)OCc1ccccc1)C(=O)N[C@@H](C[C@@H]1CCNC1=O)C(O)S(=O)(=O)O (stereo partly drawn) | CRFK | cell growth or viability |  | 36 h |  | CC50 | > 150 µM
COc1ccc(CNc2ccc(-c3ccn4c(CC5CC5)nnc4c3C(F)(F)F)cc2F)cn1 |  |  | rat Sprague Dawley male, brain | subcutaneous, 10 mg/kg, 4 h |  | brain concentration | 307 ng/g
O=C(N[C@@H](CC1CCCCC1)C(=O)N[C@@H](C[C@@H]1CCNC1=O)C(O)S(=O)(=O)O)OCc1cccc(Cl)c1 (stereo partly drawn) | feline coronavirus |  | CRFK, FIPV-1146 |  | baseline: CC50 over EC50 | therapeutic index | 2760
CC[C@H](C)[C@@H]1NC(=O)[C@H](C(C)C)NC(=O)[C@H](Cc2ccccc2)NC(=O)[C@H](Cc2ccccc2)NC(=O)[C@@H]2CCCN2C(=O)[C@@H]2CCCN2C(=O)[C@H]([C@@H](C)CC)NC(=O)[C@H](CC(C)C)NC(=O)[C@H](CCSC)NC1=O | SK-BR-3 | LDH release |  | 25 µg/mL, 24 h |  | cytotoxicity | 6%

For quick reference, copied from above:
SMILES | target or system | assay | system | setting | scale | endpoint | value
Fc1ccc(/C=N/Nc2nnc(N/N=C/c3ccc(F)cc3)c3ccccc23)cc1 |  | haemolysis | human | 100 mM, 45 min |  | haemolysis | 19 to 35%
CCCCCC(=O)OCn1cc(F)c(=O)[nH]c1=O | Caco-2 monolayer | apical to basolateral, Transwell |  | 120 min | baseline: compound over 5-fluorouracil | permeability ratio | 6.7 fold
